Measured values collected from several papers.
Compare with care: the assays were run in different laboratories. “And” joins repeats or separate records; there may be more than shown. Numbers after ± are the reported error.

CCN1CCCC1CNC(=O)c1cc(Br)cc(OC)c1O[11CH3] (stereo not shown)  VND (multiple-injection PET; rhesus monkey, brain): 3 mL/cm³
COc1ccc2c(c1)C(C)(C)C(/C=C/C1=C(Oc3ccc(C(=O)NCCCCOc4cc(CN(Cc5ccccn5)Cc5ccccn5)cc(CN(Cc5ccccn5)Cc5ccccn5)c4)cc3)C(=C/C=C3/N(CCCCS(=O)(=O)[O-])c4ccc(OC)cc4C3(C)C)CCC1)=[N+]2CCCCS(=O)(=O)[O-].O=[N+]([O-])O.O=[N+]([O-])[O-].O=[N+]([O-])[O-].O=[N+]([O-])[O-].[Zn+2].[Zn+2]  photoacoustic maximum wavelength (whole mouse blood; 64 µM): 810 nm
COc1ccc(NC(=O)Cn2c(=O)c3ccccc3n(CC(=O)Nc3cc([125I])c(OC)cc3OC)c2=O)cc1  tracer uptake (rat, liver; intravenous, 5 min): 2.2 %ID/g
[2H]C([2H])([2H])C([2H])([2H])C([2H])([2H])OC(C(=O)OC1CCNCC1)(c1ccccc1)c1ccccc1  Cmax (healthy Japanese male subjects, plasma; oral, 10 mg once daily, day 1, fed, mean): 22 ng/mL
Cc1cccc(-c2cccc(C)n2)n1.[Cl-].[Cl-].[Ru+2].c1ccc(-c2ccccn2)nc1.c1ccc(-c2ccccn2)nc1  release from nanoassemblies (phosphate buffer with NaCl; pH 6.0, 37 °C, photoactivated, dialysis): 70%
CC[C@H](C)C(=O)N1CCC(NC(=O)Nc2ccc(OC(F)(F)F)c(F)c2)CC1  subjects with laryngitis TEAE (healthy volunteers; oral, 2 mg single dose): 0%
CN(C)C(CNC(=O)Nc1cc(C(F)(F)F)ccc1N1CCOCC1)c1ccncc1 (stereo not shown)  serum ALT (mouse, serum; intraperitoneal, 240 mg/kg single dose): 96 U/L
CC(C)C[C@H](NC(=O)[C@H](CCCCN)NC(=O)[C@H](CCC(=O)O)NC(=O)[C@H](C)NC(=O)[C@@H](NC(=O)[C@H](CCCCN)NC(=O)[C@H](CC(=O)O)NC(=O)[C@H](Cc1ccc(O)cc1)NC(=O)[C@H](Cc1ccccc1)NC(=O)[C@H](C)NC(=O)[C@H](CCCCN)NC(=O)[C@H](CC(C)C)NC(=O)[C@H](Cc1c[nH]c2ccccc12)NC(=O)[C@@H](N)CC(=O)O)C(C)C)C(=O)N[C@@H](CCCCN)C(=O)N[C@@H](CCC(=O)O)C(=O)N[C@@H](C)C(=O)N[C@@H](Cc1ccccc1)C(=O)N1CCC[C@H]1C(=O)N[C@@H](CC(=O)O)C(=O)N[C@@H](Cc1c[nH]c2ccccc12)C(=O)N[C@@H](C)C(=O)N[C@@H](CCCCN)C(=O)N[C@@H](C)C(=O)N[C@@H](C)C(=O)N[C@@H](Cc1ccc(O)cc1)C(=O)N[C@@H](CC(=O)O)C(=O)N[C@@H](CCCCN)C(=O)N[C@@H](C)C(=O)N[C@@H](C)C(=O)N[C@@H](CCC(=O)O)C(=O)N[C@@H](CCCCN)C(=O)N[C@@H](C)C(=O)N[C@@H](CCCCN)C(=O)N[C@@H](CCC(=O)O)C(=O)N[C@@H](C)C(=O)N[C@@H](C)C(=O)O  clearance (cynomolgus monkey female, plasma; intravenous infusion, 8 mg/kg every other day, day 27): 0.233 mL/min/kg
CC1=CC(C)(C)N=C2C=CC(=O)C=C12  mean PCE/NCE ratio reduction (female rats, bone marrow; oral, 350 mg/kg, 48 h; reference: vehicle): 30%
N=C(N)NCc1ccc(C(=O)NCCCC[C@H](NC(=O)N[C@@H](CCC(=O)O)C(=O)O)C(=O)O)cc1[211At]  tissue uptake (SCID mouse, PC-3 xenografts, muscle; 2 h): 0.34 ± 0.08 %ID/g
CSCC[C@H](NC(=O)CNC(=O)[C@H](CCCCN)NC(=O)[C@H](CC(C)C)NC(=O)[C@@H]1CCCN1C(=O)[C@H](CO)NC(=O)[C@H](Cc1c[nH]cn1)NC(=O)[C@H](Cc1c[nH]c2ccccc12)NC(=O)[C@H](CCCNC(=N)N)NC(=O)[C@H](CC(C)C)NC(=O)[C@H](CCCNC(=N)N)NC(=O)[C@H](Cc1c[nH]c2ccccc12)NC(=O)[C@H](CS)NC(=O)CN1CCN(CC(=O)O)CCN(CC(=O)O)CCN(CC(=O)O)CC1)C(=O)O [copper-64 labelled]  intact tracer remaining (radio-HPLC; mouse serum; 2 h, 37 °C): ~20.1%
CC[C@H](C)[C@@H]1NC(=O)[C@H](CCCCN)NC(=O)[C@H](CCCCN)NC(=O)[C@H](Cc2ccc(O)cc2)NC(=O)[C@H](CC(C)C)NC(=O)[C@@H]2CCCN2C(=O)[C@H](C)NC(=O)CNC(=O)CNC(=O)[C@H](CO)NC(=O)CNC(=O)CNC(=O)[C@H](CO)NC(=O)[C@H](CCC(=O)O)NC(=O)[C@H](CC(C)C)NC(=O)[C@H](CC(C)C)NC(=O)[C@H](CCCNC(=N)N)NC(=O)[C@H](CCCCN)NC(=O)[C@H]([C@@H](C)CC)NC(=O)[C@H]([C@@H](C)CC)NC(=O)[C@H](CCCCN)NC(=O)[C@H](CCCCN)NC(=O)[C@H](Cc2ccc(O)cc2)NC(=O)[C@H](CC(C)C)NC(=O)[C@@H]2CCCN2C(=O)[C@H](C)NC(=O)CNC(=O)CNC(=O)[C@H](CO)NC(=O)CNC(=O)CNC(=O)[C@H](CO)NC(=O)[C@H](CCC(=O)O)NC(=O)[C@H](CC(C)C)NC(=O)[C@H](CC(C)C)NC(=O)[C@H](CCCNC(=N)N)NC(=O)[C@H](CCCCN)NC(=O)[C@H]([C@@H](C)CC)NC1=O  remaining intact peptide (25% human serum; 50 µM, 24 h; reference: 0 h control): 75.8 ± 1.1%
CSCC[C@@H]1NC(=O)[C@@H]2CSSC[C@H](NC(=O)[C@H](CO)NC(=O)[C@H](C)N)C(=O)N[C@@H](CCCNC(=N)N)C(=O)N[C@@H]([C@@H](C)O)C(=O)N3CCC[C@H]3C(=O)N[C@@H](CCCCN)C(=O)N[C@@H](CC(=O)O)C(=O)N[C@H]3CSSC[C@H](NC(=O)[C@H](CCCCN)NC(=O)[C@H](CCCNC(=N)N)NC(=O)[C@H](CC(N)=O)NC1=O)C(=O)N[C@@H](CCCCN)C(=O)N[C@H]1CSSC[C@H](NC(=O)[C@@H]4CCCN4C(=O)[C@H](CC(=O)O)NC(=O)[C@H](C)NC3=O)C(=O)N[C@@H](C)C(=O)N[C@@H](CCCCN)C(=O)N[C@@H](CCC(=O)O)C(=O)N[C@@H]([C@@H](C)O)C(=O)NCC(=O)N[C@@H](CSSC[C@@H](C(N)=O)NC(=O)[C@H](CCCNC(=N)N)NC(=O)[C@H](CC(N)=O)NC1=O)C(=O)N1CCC[C@H]1C(=O)N[C@@H](Cc1ccc(O)cc1)C(=O)NCC(=O)N[C@@H](CCCCN)C(=O)N2  albumin/globulin ratio (DA rat, pristane-induced arthritis, serum; subcutaneous, 0.1 mg/kg every other day, end of 21-day trial): 2.74
NC(=O)[C@@H](CCCCNC(=O)CNC(=O)CCC(=O)NCCc1c[nH]cn1)NC(=O)[C@@H](Cc1ccc(O)cc1)NC(=O)[C@@H](CCCCNC(=O)CNC(=O)CCC(=O)NCCc1c[nH]cn1)NC(=O)Cc1ccc(CN2CCN(CC(=O)O)CCN(CC(=O)O)CC2)cc1 [fluorine-18 labelled]  tissue ratio (tumour-bearing nude mice; intravenous, 1 h, TF2 pretargeting; reference: tumour over kidney): 9 ± 4
CNC(=O)Oc1cc(C)c(S(C)(=O)=O)c(C)c1  percent metabolized (human liver mitochondrial preparation; 1 µM, 30 min, 0.5 mg/mL protein): 33.1%
CC(=O)[O-].CN1CCCN2CCN(CCCN(Cc3ccccc3)CC2)CC1.F[P-](F)(F)(F)(F)F.[Co+2]  peak separation (cyclic voltammetry, item: first Co2+/Co3+ couple; acetonitrile): 177 mV
CCN(CCCCOc1ccc(CCC(=O)N2CCC(Cc3ccccc3)CC2)cc1OC)Cc1ccccc1  concentration (Sprague-Dawley rats, both sexes, brain; oral, 25 mg/kg, 6 h): 301 ng/g
COc1cc(NC(=O)C(=O)c2c(C)n(Cc3ccc(Cl)cc3)c3ccc(C)cc23)ccn1  oral bioavailability (cynomolgus monkey, female, plasma; oral, 10 mg/kg): 19.3% and 15.3% and 13.7% and 23.6% and 31.1% and 21.8%
CCCCCCCCCCCCCCC(=O)O.O=C1CCCC2C3CCCN4CCCC(CN12)C34 (stereo not shown)  log octanol-water partition coefficient (shake-flask; simulated gastric fluid; pH 1.2, 25 °C): -1.17
CCN(CC)c1ccc2c(-c3ccccc3C(=O)OCCC[18F])c3ccc(=[N+](CC)CC)cc-3oc2c1  radioactivity concentration (microPET; rat, heart; dose not given, 5 min post injection): 66 ± 6 kBq/cm³
[11CH3]Oc1ccc(C(=O)Nc2cc(-c3ccc(I)cc3)no2)cc1  parent compound fraction (rhesus macaque, venous blood; intravenous, 5 min): ~21% and 21%
[3H]c1sc(C)nc1C=C(C)C1CC2C(CCCC(C)C(O)C(C)C(=O)C(C)(C)C(O)CC(=O)O1)N2CCO (stereo not shown)  AUC (CD2F1 mouse, tumour-bearing, plasma; intravenous, 1.2 mg/kg): 645 ± 82.6 ng·h/mL

Repeated from above:
CCCCCCCCCCCCCCC(=O)O.O=C1CCCC2C3CCCN4CCCC(CN12)C34 (stereo not shown)  log octanol-water partition coefficient (shake-flask; simulated gastric fluid; pH 1.2, 25 °C): -1.17
CN(C)C(CNC(=O)Nc1cc(C(F)(F)F)ccc1N1CCOCC1)c1ccncc1 (stereo not shown)  serum ALT (mouse, serum; intraperitoneal, 240 mg/kg single dose): 96 U/L
